Measured values from different studies.
Lines come from different studies, so protocols differ. “And” joins repeats or separate records; there may be more than shown. Numbers after ± are the reported error.
Sequence of UniProt Q007T0 (whole entry, looked up): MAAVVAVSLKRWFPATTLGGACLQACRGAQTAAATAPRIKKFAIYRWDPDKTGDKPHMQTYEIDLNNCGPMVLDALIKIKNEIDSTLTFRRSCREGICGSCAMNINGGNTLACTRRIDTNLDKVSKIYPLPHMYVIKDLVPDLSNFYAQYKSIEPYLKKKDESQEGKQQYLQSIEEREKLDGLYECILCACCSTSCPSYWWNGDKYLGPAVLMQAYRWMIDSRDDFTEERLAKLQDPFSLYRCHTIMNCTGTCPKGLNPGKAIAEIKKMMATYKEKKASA
Sequence of UniProt D0VWV4 (whole entry, looked up): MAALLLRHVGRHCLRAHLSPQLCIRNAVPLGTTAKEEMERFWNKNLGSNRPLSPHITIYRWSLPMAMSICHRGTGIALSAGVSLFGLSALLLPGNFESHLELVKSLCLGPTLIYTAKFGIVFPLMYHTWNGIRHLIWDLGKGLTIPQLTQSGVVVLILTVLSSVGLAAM
Sequence of UniProt Q9EP73 (whole entry, looked up): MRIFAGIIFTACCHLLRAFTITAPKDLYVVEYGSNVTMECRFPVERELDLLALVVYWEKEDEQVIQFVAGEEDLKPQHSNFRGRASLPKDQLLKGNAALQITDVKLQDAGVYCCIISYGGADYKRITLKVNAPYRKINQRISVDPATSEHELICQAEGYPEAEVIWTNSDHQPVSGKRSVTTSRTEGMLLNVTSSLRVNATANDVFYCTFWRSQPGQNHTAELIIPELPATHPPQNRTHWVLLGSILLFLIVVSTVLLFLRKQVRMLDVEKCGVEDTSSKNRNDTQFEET
Sequence of UniProt A5GZW8 (whole entry, looked up): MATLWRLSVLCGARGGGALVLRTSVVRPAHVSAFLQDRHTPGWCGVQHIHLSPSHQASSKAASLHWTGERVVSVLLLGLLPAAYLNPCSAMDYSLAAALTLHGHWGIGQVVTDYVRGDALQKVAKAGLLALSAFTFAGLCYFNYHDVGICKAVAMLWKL
Sequence of UniProt Q8IY84 (whole entry, looked up): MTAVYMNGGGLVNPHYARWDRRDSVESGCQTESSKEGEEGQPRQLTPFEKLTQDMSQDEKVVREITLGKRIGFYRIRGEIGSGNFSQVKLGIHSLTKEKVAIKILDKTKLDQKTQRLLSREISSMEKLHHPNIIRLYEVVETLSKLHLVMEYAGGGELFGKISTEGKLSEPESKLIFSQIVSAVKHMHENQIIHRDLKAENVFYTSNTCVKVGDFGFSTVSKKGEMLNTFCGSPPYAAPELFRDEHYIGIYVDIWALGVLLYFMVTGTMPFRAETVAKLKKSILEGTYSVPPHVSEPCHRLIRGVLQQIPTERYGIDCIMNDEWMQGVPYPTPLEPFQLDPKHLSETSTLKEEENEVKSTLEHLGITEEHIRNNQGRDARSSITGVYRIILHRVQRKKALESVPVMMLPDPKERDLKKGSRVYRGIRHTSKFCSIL
Sequence of UniProt Q8WU58 (whole entry, looked up): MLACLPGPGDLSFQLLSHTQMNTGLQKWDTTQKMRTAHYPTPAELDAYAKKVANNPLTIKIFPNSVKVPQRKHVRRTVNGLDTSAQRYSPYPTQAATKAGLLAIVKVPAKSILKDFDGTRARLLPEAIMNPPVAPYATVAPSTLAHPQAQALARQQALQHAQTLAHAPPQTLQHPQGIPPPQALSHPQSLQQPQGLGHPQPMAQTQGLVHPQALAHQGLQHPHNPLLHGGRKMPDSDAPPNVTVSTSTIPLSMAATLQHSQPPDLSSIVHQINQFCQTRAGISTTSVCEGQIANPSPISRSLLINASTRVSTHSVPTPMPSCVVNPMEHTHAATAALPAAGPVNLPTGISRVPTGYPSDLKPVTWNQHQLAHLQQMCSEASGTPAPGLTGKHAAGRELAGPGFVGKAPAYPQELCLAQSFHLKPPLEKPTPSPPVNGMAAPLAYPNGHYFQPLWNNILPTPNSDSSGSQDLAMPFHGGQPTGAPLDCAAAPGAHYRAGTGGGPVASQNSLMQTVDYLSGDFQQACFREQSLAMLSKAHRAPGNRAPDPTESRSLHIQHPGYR
Sequence of UniProt P37288 (whole entry, looked up): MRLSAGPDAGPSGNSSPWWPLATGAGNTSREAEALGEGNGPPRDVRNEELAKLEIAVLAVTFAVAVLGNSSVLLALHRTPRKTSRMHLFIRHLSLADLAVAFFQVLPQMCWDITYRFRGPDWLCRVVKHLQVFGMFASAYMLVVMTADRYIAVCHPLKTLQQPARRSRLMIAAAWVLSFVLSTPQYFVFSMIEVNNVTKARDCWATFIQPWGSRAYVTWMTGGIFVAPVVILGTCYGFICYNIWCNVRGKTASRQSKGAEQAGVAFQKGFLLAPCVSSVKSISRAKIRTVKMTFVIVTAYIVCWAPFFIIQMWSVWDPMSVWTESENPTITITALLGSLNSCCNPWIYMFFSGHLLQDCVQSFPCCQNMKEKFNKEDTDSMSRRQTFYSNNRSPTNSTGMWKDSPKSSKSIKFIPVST
Sequence of UniProt Q96PF2 (whole entry, looked up): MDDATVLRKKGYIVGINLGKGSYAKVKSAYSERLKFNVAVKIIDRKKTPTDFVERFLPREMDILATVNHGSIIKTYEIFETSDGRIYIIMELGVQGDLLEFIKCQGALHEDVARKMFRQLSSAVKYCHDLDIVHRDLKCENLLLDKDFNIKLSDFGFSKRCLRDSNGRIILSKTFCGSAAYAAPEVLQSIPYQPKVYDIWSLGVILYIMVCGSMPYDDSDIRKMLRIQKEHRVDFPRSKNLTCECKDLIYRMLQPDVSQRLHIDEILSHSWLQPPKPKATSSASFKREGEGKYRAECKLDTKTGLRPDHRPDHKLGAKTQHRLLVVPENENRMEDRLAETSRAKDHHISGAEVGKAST
Sequence of UniProt Q16659 (whole entry, looked up): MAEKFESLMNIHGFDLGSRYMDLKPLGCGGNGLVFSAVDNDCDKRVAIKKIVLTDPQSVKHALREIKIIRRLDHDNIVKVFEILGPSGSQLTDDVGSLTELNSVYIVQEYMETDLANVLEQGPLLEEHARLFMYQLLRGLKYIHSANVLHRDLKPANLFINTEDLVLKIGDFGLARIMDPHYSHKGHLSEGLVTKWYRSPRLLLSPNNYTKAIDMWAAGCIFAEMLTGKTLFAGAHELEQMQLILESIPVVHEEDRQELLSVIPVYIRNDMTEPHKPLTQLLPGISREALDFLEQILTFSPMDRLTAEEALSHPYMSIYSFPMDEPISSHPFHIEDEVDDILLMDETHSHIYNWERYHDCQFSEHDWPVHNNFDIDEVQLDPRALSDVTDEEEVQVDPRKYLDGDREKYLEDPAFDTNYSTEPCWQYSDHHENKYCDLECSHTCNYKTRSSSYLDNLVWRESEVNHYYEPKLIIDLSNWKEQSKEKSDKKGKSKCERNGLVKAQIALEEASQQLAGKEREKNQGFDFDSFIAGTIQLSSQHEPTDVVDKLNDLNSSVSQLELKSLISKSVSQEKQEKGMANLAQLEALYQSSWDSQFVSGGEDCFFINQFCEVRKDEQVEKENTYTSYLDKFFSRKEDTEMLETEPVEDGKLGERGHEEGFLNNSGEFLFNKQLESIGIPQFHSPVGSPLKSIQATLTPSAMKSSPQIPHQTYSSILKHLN
Sequence of UniProt Q13705 (whole entry, looked up): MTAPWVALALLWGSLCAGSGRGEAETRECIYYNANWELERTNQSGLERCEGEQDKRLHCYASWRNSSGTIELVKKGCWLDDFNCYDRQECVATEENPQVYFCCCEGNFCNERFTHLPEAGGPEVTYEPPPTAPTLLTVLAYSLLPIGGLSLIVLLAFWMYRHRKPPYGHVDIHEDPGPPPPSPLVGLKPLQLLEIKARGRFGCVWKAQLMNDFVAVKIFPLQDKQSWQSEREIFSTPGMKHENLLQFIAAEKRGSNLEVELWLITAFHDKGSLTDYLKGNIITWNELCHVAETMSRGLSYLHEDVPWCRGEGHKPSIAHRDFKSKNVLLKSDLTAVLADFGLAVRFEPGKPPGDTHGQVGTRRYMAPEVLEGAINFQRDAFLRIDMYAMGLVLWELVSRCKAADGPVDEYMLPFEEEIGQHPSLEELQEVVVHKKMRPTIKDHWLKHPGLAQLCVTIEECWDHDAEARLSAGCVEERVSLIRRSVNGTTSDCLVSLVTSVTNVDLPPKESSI
Sequence of UniProt P02716 (whole entry, looked up): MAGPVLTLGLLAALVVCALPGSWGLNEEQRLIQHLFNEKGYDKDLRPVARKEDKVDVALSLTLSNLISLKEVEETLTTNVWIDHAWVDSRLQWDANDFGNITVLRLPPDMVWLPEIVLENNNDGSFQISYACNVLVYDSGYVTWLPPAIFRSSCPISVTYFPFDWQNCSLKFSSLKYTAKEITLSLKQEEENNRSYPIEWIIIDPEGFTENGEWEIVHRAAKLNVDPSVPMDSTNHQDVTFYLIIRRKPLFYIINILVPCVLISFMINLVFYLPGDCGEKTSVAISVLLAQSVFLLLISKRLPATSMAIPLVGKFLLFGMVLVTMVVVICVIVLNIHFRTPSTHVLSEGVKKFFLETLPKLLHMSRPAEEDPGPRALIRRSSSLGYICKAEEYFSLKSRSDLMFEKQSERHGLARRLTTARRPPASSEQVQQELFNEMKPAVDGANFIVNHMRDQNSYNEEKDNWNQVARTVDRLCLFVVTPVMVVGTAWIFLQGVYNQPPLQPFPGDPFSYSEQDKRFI
Sequence of UniProt P09690 (whole entry, looked up): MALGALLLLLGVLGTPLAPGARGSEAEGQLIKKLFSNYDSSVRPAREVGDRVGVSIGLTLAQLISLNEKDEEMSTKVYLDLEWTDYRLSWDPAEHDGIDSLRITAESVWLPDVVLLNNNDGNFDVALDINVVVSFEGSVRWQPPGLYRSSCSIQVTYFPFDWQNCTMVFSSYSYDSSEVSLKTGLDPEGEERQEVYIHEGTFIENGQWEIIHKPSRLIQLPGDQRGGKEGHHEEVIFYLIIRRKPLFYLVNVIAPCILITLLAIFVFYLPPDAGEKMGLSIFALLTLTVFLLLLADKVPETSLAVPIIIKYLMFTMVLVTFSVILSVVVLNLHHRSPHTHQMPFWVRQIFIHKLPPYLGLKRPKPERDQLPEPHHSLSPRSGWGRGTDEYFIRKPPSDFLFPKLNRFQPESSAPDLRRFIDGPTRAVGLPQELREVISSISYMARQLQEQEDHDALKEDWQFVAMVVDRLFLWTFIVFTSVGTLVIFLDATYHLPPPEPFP

For `Nc1ncc(-c2nc(N3CCOCC3)nc(N3CCOCC3)n2)c(C(F)F)n1`, the remaining binding was 69% (Receptor tyrosine-protein kinase erbB-3 (ERBB3, Homo sapiens, UniProt P21860); KINOMEscan; 10 µM).
For `COc1ccc(N2C(=O)N(c3c(C)cccc3Cl)Cc3cnc(Nc4ccc(C5CCN(C)CC5)cc4OC)nc32)nc1`, the inhibition was 4.28% (Testis-specific serine/threonine-protein kinase 2 (TSSK2, Homo sapiens, UniProt Q96PF2); kinase activity; 0.5 µM).
For `Cc1nn(C)cc1-c1nc2c(N3CCN(Cc4ccc(Cl)cc4)CC3)c(Cl)cnc2[nH]1`, the remaining binding was 72% (Activin receptor type-2B (ACVR2B, Homo sapiens, UniProt Q13705); KINOMEscan; 1 µM; relative to: DMSO control).
For `O=C(c1ccc(Cl)cc1)N1CCN2C(=O)N(OC(=O)N3CCOc4ccccc43)C(=O)C2C1` (stereo not shown), the median ratio was 1.12 (Prolyl endopeptidase (PREP, Homo sapiens, UniProt P48147); enzyme activity, inhibitor, MS-based ABPP; SW-620 in situ; 10 µM, 2 h, 37 °C; relative to: compound over DMSO, lower = stronger inhibition).
`CC[C@@H](C)[C@@H](NC(=O)[C@@H](Cc1ccc(O)cc1)NC(=O)[C@H]1CCCN1C(=O)[C@@H](CCCNC(=N)N)NC(=O)[C@H](N)Cc1c[nH]cn1)C(=O)N[C@H](C)C(=O)N[C@H](Cc1c[nH]cn1)C(=O)N[C@H](CCCNC(=N)N)C(=O)N[C@H](CCCCNC(=O)c1cccc(S(=O)(=O)F)c1)C(=O)N[C@H](Cc1ccc(O)cc1)C(=O)N[C@H](CO)C(=O)N[C@H](Cc1ccccc1)C(N)=O` — result for “PD-L1 blocking rate”: 17.4% and 55.2% and 47.4% (Programmed cell death 1 ligand 1, with PD-1 (Cd274, Mus musculus, UniProt Q9EP73); PD-1-Fc binding; B16; concentration not given, 48 h).
`O=C(Nc1cnccc1Cl)N1CCN(Cc2ccc3c(c2)OC(F)(F)O3)CC1` — result for “inhibition of binding”: -7% (Cysteinyl leukotriene receptor 2 (CYSLTR2, Homo sapiens, UniProt Q9NS75); radioligand binding; 50 µM, with: [3H]LTD4).
`O=C(O)c1cccc(C(=O)O)n1` gave a koff of 0.00383 ± 0.001 s⁻¹ (Metallo-beta-lactamase VIM-2 (VIM-2, Escherichia coli, UniProt Q5U7L7); enzyme activity, inhibitor; with: nitrocefin).
`CC[N+]1(C)CCN(c2ccc(Cl)cc2)CC1.[I-]` has an ACh response of 0.507 ± 0.345 (Nicotinic acetylcholine receptor alpha1/beta1/epsilon/delta (Mus musculus, UniProt P02716+P04756+P09690+P20782); ion current, inhibitor, two-electrode voltage clamp; Xenopus oocytes; 30 µM, after co-application, unit not given, with: ACh 30 µM; relative to: ACh alone).
`[2H]c1c([2H])c([C@]2([2H])CCCN2C(=O)C(C)(C)Oc2ccc3cn[nH]c3c2)c([2H])c([2H])c1C([2H])([2H])[2H]` has a remaining binding of 84% (Serine/threonine-protein kinase NIM1 (NIM1K, Homo sapiens, UniProt Q8IY84); KINOMEscan; 1 µM; relative to: DMSO control).
`C=C(CN(C(=O)c1c(C(F)F)nn(C)c1F)C1CC1)c1ccc(Cl)cc1Cl` gave a reaction velocity of 0.0167 µM/s and 0.0171 µM/s and 0.0172 µM/s (SDHD/SDHC/SDHB (Sus scrofa, UniProt A5GZW8+D0VWV4+Q007T0); enzyme activity, inhibitor, DCIP reduction; pig; 0.1 µM, with: DCIP 80 µM).
With `C[C@H]1CN(c2n[nH]c3nc(N[C@H]4CC[C@H](NS(=O)(=O)CCC(F)(F)F)CC4)ncc23)CCO1` the remaining binding was 45% (Protein FAM222B (Homo sapiens, UniProt Q8WU58); competitor, Kinobeads competition; HEK293, K562, placenta extract; 0.8 µM; relative to: vehicle).
`CN1CCN(c2cc(-c3ccncc3)c(-c3ccc4ccccc4c3)nn2)CC1` has an activation of -4% (Vasopressin V1a receptor (AVPR1A, Homo sapiens, UniProt P37288); agonist, FLIPR; 12.5 µM).
`O=C(O)C(F)(OC(F)(F)C(F)(F)C(F)(F)F)C(F)(F)F` (stereo not shown) gave an association constant of 220000 M⁻¹ (Albumin (ALB, Homo sapiens, UniProt P02768); ITC; 25 °C, first binding site, with: HSA 20 µM).
With `COc1cc(Nc2ncc(F)c(Nc3ccc4c(n3)NC(=O)C(C)(C)O4)n2)cc(OC)c1OC` the inhibition was 43% (Mitogen-activated protein kinase 6 (MAPK6, Homo sapiens, UniProt Q16659); binding, KINOMEscan; 10 µM, ERK3 kinase).
With `O=C(Nc1cccnn1)N1CCC(=Cc2cccc(Oc3ccc(C(F)(F)F)cn3)c2)CC1` the probe labelling was -4.4 (Talin-2 (Rattus norvegicus, UniProt A0A8I5Y6H9); competitive ABPP with azido-FP probe; rat brain soluble fraction; 0.1 µM, unit not given; relative to: DMSO).
For `OC1Cc2ccccc2CC1N1CCC2(C=Cc3cc(F)ccc32)CC1` (racemic), the selectivity ratio was 11 (Sigma non-opioid intracellular receptor 1 (SIGMAR1, Homo sapiens, UniProt Q99720); rat liver (sigma2), human sigma1; relative to: Ki sigma2 over Ki sigma1).

Excerpt of the above:
`O=C(Nc1cnccc1Cl)N1CCN(Cc2ccc3c(c2)OC(F)(F)O3)CC1` — result for “inhibition of binding”: -7% (Cysteinyl leukotriene receptor 2 (CYSLTR2, Homo sapiens, UniProt Q9NS75); radioligand binding; 50 µM, with: [3H]LTD4).
`O=C(O)c1cccc(C(=O)O)n1` gave a koff of 0.00383 ± 0.001 s⁻¹ (Metallo-beta-lactamase VIM-2 (VIM-2, Escherichia coli, UniProt Q5U7L7); enzyme activity, inhibitor; with: nitrocefin).
